Measured values of several laboratories.
Each line is one published result; not all experiments were run side by side. Values joined by “and” are separate records of one study, mostly repeats; a detail may differ. ± marks the error that the study gave.

O=C(O)CCCOc1ccc([18F])cc1-c1cc(-c2ccccc2C(F)(F)F)n(-c2ccccc2)n1  radioactivity uptake (gamma counting; male ddY mice, lung; intravenous, 2.1 MBq, 5 min): 0.64 ± 0.1 SUV
CCc1c(-c2ccccc2)c(-c2ccccc2)nn1-c1ccccc1-c1cccc(OCC(=O)O)c1  clearance observed (Sprague-Dawley rat; intravenous, dose not given): 830 mL/h/kg and 603 mL/h/kg and 641 mL/h/kg
O=C1NCCc2nc(OCc3cccc(F)c3)ccc21  Irwin test score (refers to: Tremors; Sprague-Dawley rat male; oral, 100 mg/kg, 0 min; relative to: baseline, direction not given): 0
O=C(O)c1cc(O)c(O)c(O)c1  plasma concentration (human plasma; mean, both sexes): 19 nM
C=C(C)[C@@H](CC=C(C)C)C[C@@]12C[C@@H](CC=C(C)C)C(C)(C)[C@@](CC=C(C)C)(C(=O)C(C(=O)c3ccc(O)c(O)c3)=C1O)C2=O  viability (OCI-Ly1; 1 µM, 120 h): 24.2%
Cc1ccc(C(=O)N(CCCN)C(c2nc3snc(C)c3c(=O)n2Cc2ccccc2)C(C)C)cc1 (stereo not shown)  C24h (patients, plasma; intravenous, dose not given, 24 h, first induction course, all doses, geometric mean): 13.2 ng/mL
Cn1cc(Nc2nccc(-c3ccc4c(c3)CN(C3COC3)CC[C@H]4NC(=O)c3cn(C(C)(C)C)nn3)n2)cn1  NK cell count change (human, whole blood; 50 mg twice daily, day 7; relative to: pre-dose baseline): 151%
CCCc1cc(C)[nH]c(=O)c1CNC(=O)c1cc(-c2ccnc(N3CCN(C)CC3)c2)cc2c1cnn2C(C)C  viability (OCI-Ly1; 1 µM, 120 h): 86.1%
CN(C)c1cc(NC(=O)CNC(C)(C)C)c(O)c2c1C[C@H]1C[C@H]3[C@H](N(C)C)C(O)=C(C(N)=O)C(=O)[C@@]3(O)C(O)=C1C2=O  amount permeated (starch gel membrane permeability; Gram-negative envelope surrogate; 200 µM, 20 min, pH 7.4): 0.9 nmol
O=C1CC[C@H](N2Cc3cc(N4CCN(CC5CCN(c6ccc([C@@H]7c8ccc(O)cc8CC[C@@H]7c7ccccc7)cc6)CC5)CC4)ccc3C2=O)C(=O)N1  dose excreted (radiolabelled mass balance; Sprague-Dawley rat, female, feces; oral, 20 mg/kg, 0 to 168 h): 91.5%
O=C1CCC(N2Cc3cc(CO)c(F)cc3C2=O)C(=O)N1 (stereo not shown)  plasma concentration (cynomolgus monkey, male; oral, 0.3 mg/kg parent drug, 4 h): 0.59 ± 0.34 ng/mL
COc1cccc(O)c1OS(=O)(=O)O  plasma concentration (human plasma; median): 1770 nM
Cc1c2oc3c(C)ccc(C(=O)N[C@@H]4C(=O)N[C@H](C(C)C)C(=O)N5CCC[C@H]5C(=O)N(C)CC(=O)N(C)[C@@H](C(C)C)C(=O)O[C@@H]4C)c3nc-2c(C(=O)N[C@@H]2C(=O)N[C@H](C(C)C)C(=O)N3CCC[C@H]3C(=O)N(C)CC(=O)N(C)[C@@H](C(C)C)C(=O)O[C@@H]2C)c(N)c1=O  median plasma concentration (LC-MS; children with cancer, plasma; dose not given, 6 h): 3.2 µg/L
CCn1cc(C(=O)N2CCOCC2)c(=O)c2cc(NC3Cc4ccccc4C3)cnc21  AUC(0-last) (human, fed; oral suspension, 2000 mg single dose, arithmetic mean): 49000 ng·h/mL
O=c1ccccc(C2CCCO2)c1O (stereo not shown)  serum concentration (C57BL/6 mouse male, turpentine inflammation anemia, serum; 50 mg/kg/day, 3 h after last dose): 3 µM
CC(C)(Sc1ccncc1-c1ccc(C#N)c2ccccc12)C(=O)O  AUC(0-24) (human, plasma; oral, 10 mg once daily, added: febuxostat 0 mg): 209 ng·h/mL
O=C(Nc1nc2cccc(-c3ccc(CN4CCS(=O)(=O)CC4)cc3)n2n1)C1CC1  treatment-emergent adverse events (refers to: injection site haematoma; human rheumatoid arthritis patients; oral, 30 mg once daily, 4 weeks, regardless of relatedness): 0%
C=CC(=O)NC1CCN(c2ncc3ncnc(Nc4ccc(Oc5ccc6c(c5)ncn6C)c(C)c4)c3n2)CC1  adverse events incidence (refers to: gastrointestinal disorders (SOC); human male; oral, dose not given, CTCAE on-treatment AEs): 0%
CN(C(=O)n1cnc(-c2ccc[n+]([O-])c2)c1)[C@H]1CC[C@H](O)CC1  concentration (Wistar rat, medulla oblongata; oral, 10 mg/kg/day of BIA 10-2474, 72 h, repeated 5 days): 8.8 ± 6.8 ng/g
COc1cc(C(=O)N2CCC3(CC2)CC(=O)c2c(cnn2C(C)C)C3)cc(-c2ccc(C(=O)O)cc2)n1  percentage change from baseline (refers to: direct LDL cholesterol; human, fasting serum; 1 mg every 12 h, day 13, adjusted geometric mean; relative to: baseline): -5.2%
CCN1CCN(Cc2ccc(NC(=O)c3ccc(C)c(NC(=O)c4cncc(-c5cccs5)c4)c3)cc2C(F)(F)F)CC1  mean plasma concentration (LC-MS/MS; C57BL/6 mouse, plasma; intraperitoneal, 15 mg/kg single dose, 0.5 h): 0.538 µg/mL
Cc1ccc(Sc2ccccc2N2CCNCC2)c(C)c1  participants with TEAE (refers to: Pollakiuria; healthy adult women; oral, 5 mg daily, 12 days): 16.7%

Repeated from above:
CCCc1cc(C)[nH]c(=O)c1CNC(=O)c1cc(-c2ccnc(N3CCN(C)CC3)c2)cc2c1cnn2C(C)C  viability (OCI-Ly1; 1 µM, 120 h): 86.1%
